Measurements collected from several papers.
Protocols differ between the studies behind these lines. Numbers after ± are the reported error. Converted amounts (≈) assume the structure as drawn.
Scavenger receptor class B member 1: Scavenger receptor class B member 1 (Mus musculus, UniProt Q61009)
NUDT15: Nucleotide triphosphate diphosphatase NUDT15 (NUDT15, Homo sapiens, UniProt Q9NV35)
SEC14: SEC14 (Saccharomyces cerevisiae, UniProt P24280)

The chains behind the UniProt entries cited, without tags or fusion partners. Residues count along the entry.
UniProt Q61009, whole entry: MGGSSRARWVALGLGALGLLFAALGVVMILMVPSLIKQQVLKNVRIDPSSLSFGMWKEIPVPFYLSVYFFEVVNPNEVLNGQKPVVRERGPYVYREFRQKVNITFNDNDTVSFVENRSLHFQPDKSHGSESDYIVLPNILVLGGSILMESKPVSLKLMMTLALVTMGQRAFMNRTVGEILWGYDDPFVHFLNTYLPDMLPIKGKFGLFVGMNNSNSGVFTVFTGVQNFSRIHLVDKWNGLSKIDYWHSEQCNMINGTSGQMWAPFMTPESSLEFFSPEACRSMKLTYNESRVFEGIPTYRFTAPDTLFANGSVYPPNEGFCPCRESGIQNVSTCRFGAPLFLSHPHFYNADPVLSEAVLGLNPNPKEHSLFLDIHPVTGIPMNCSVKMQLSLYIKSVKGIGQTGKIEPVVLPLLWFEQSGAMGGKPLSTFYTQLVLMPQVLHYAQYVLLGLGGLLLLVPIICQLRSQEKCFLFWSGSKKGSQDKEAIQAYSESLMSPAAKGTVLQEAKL
UniProt Q9NV35, whole entry: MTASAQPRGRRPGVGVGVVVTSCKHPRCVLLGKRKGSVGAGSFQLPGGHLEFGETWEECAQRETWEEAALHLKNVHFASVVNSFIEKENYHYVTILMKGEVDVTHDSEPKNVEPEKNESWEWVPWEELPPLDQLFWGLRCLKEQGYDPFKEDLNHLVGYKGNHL
UniProt P24280, whole entry: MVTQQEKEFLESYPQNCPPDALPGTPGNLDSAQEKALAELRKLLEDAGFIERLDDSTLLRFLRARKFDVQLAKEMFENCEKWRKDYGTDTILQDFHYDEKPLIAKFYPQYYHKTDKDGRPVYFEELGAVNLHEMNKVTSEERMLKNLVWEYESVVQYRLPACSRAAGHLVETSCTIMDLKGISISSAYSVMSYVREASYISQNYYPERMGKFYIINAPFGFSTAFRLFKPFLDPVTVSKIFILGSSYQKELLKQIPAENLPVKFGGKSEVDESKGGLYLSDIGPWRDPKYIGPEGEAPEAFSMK
UniProt P47871, 26-477 limits assumed: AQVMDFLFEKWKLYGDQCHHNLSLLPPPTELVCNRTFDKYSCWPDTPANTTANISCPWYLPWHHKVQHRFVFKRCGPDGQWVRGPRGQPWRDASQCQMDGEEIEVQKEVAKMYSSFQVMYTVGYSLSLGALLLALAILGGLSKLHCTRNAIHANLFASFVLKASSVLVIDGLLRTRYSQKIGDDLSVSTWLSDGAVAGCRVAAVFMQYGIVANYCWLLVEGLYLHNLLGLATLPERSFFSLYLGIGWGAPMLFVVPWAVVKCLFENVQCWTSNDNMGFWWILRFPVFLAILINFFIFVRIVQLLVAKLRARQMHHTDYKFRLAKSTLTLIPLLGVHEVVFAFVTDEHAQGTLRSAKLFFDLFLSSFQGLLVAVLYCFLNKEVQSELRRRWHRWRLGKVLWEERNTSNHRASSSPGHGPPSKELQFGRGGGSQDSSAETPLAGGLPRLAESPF
UniProt Q9NR97, 27-1041 limits assumed: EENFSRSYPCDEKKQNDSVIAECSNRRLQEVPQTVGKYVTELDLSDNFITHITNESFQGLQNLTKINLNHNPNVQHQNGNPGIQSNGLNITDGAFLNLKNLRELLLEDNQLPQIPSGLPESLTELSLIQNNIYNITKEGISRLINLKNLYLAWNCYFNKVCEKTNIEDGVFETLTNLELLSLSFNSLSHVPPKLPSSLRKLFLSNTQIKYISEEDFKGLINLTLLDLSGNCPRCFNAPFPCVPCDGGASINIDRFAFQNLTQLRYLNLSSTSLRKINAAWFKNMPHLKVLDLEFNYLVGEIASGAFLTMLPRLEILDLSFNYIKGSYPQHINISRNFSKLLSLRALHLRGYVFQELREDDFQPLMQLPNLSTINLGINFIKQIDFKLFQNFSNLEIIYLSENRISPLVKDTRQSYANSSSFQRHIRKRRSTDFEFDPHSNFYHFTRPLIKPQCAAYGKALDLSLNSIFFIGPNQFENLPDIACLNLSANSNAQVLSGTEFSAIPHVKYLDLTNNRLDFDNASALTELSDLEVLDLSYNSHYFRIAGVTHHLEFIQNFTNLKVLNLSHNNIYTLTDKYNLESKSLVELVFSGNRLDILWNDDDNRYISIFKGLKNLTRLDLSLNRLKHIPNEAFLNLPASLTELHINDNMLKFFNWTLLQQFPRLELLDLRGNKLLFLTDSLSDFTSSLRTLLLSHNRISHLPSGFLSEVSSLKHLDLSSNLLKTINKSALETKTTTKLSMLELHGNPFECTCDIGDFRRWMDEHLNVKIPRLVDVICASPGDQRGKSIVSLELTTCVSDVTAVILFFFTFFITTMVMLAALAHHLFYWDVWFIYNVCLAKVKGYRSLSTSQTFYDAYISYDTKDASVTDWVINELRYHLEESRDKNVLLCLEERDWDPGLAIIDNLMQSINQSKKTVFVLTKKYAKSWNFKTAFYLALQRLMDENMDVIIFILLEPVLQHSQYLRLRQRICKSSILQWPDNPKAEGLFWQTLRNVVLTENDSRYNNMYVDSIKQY
UniProt O94788, 27-518 limits assumed: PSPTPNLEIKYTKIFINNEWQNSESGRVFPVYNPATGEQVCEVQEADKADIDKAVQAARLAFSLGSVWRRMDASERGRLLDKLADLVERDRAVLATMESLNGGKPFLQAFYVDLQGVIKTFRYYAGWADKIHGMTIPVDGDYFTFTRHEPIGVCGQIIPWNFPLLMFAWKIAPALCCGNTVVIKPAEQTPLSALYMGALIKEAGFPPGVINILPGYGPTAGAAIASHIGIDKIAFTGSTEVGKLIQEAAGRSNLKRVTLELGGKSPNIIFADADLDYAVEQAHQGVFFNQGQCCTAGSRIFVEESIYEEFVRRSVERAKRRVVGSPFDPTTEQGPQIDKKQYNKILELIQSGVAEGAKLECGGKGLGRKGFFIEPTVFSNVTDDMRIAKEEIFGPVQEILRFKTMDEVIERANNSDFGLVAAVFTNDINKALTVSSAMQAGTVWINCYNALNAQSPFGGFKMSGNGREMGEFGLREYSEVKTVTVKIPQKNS
UniProt Q9H9B1, 1126-1243 limits assumed: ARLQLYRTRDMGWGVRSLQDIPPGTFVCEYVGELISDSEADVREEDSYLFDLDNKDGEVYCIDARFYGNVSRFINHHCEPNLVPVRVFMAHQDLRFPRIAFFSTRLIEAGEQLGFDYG
UniProt P00519, 65-534 limits assumed: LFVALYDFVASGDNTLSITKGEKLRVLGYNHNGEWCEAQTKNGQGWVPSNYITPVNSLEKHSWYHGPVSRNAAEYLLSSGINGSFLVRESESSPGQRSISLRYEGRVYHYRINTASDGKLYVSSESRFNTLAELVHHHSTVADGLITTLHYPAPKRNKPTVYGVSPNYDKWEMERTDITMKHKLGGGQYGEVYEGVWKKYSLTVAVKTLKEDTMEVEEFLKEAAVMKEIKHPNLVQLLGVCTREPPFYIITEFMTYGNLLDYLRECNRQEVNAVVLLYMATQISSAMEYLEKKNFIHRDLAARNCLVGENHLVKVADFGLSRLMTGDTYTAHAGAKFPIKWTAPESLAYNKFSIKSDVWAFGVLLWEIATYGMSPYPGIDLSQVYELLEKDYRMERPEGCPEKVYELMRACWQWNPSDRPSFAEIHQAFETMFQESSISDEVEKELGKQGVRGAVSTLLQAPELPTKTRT
UniProt P46098, whole entry, looked up: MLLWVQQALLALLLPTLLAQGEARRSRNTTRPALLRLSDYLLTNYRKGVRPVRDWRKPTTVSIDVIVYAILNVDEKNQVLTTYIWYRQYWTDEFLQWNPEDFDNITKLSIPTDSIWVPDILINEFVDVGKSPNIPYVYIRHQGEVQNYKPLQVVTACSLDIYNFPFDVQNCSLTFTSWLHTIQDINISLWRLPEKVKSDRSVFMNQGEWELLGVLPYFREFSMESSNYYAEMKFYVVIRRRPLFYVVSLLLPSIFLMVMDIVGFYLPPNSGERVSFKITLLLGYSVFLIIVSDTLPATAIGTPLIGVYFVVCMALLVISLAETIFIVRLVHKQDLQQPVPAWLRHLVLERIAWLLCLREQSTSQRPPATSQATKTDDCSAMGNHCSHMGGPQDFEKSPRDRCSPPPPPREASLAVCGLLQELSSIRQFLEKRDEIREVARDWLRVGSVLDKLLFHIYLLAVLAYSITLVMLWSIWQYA
UniProt Q14790, 214-479 D374A/D384A/C409S/G418A/C433S limits assumed: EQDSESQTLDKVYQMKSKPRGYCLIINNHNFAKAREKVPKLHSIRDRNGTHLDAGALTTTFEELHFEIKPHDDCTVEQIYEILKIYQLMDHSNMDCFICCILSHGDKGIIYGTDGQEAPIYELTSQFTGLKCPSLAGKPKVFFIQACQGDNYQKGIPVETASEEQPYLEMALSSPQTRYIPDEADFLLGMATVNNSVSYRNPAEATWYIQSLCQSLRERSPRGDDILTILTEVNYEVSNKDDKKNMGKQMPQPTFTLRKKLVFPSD
UniProt P08183, whole entry: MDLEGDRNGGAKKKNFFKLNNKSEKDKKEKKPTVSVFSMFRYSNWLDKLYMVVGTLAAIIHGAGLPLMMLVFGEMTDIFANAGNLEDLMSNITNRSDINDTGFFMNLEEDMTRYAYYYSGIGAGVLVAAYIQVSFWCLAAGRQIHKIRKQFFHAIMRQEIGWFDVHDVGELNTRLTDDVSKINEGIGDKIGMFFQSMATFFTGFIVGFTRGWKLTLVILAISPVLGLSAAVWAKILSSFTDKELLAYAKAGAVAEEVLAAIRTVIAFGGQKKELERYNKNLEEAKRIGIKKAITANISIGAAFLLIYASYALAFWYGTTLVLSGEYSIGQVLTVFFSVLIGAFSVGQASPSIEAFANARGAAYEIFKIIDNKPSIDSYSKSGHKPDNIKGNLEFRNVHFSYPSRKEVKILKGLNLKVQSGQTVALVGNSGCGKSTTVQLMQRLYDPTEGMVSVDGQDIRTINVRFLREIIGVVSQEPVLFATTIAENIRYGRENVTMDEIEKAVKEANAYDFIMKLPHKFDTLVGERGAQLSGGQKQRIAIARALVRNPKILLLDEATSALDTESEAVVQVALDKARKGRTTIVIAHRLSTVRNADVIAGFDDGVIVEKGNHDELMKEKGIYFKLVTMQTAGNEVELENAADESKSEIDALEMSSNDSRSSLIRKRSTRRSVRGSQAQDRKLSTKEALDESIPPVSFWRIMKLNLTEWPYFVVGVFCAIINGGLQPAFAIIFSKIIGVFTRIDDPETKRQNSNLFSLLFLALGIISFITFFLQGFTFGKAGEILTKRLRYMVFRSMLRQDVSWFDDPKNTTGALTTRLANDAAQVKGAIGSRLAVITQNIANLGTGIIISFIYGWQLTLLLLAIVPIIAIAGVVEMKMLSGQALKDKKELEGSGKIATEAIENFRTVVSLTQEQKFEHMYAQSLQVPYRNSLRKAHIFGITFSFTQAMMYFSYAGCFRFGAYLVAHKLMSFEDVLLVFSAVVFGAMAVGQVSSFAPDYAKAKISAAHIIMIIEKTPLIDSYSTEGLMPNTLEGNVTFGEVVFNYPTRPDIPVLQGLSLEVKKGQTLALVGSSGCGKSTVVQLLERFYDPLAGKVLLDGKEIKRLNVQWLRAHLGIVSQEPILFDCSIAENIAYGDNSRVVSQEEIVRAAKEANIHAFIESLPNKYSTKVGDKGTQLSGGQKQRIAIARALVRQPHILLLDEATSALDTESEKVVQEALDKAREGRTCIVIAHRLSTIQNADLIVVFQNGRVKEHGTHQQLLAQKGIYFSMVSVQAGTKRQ

Structure (SMILES) | tested on | test | test system | conditions | quantity | result
CCc1nc(C2CC2)nc(N2CCN(C(=O)c3ccco3)CC2)c1Cc1cc(C)ccc1C | Glucagon receptor (GCGR, Homo sapiens, UniProt P47871) | cAMP accumulation, antagonist | CHO cells | together with: glucagon | IC50 | 22600 nM
CN(C)S(=O)(=O)c1ccc(NCCCCN2CCC(Nc3nc4ccccc4n3Cc3ccc(F)cc3)CC2)c2nonc12 | HEK293 hERG-transfected | lysosome colocalization | – | 2.5 µM | colocalization coefficient | 0.75
O=C(c1ccc(C(F)(F)F)cc1)N1CCN(c2ccc([N+](=O)[O-])c3ncccc23)CC1 | Toll-like receptor 8 (TLR8, Homo sapiens, UniProt Q9NR97) | reporter gene, inhibitor, SEAP reporter | HEK-Blue TLR8 | – | IC50 | 580 ± 110 nM
COCC(=O)N1CC(C)(C)c2cc(-c3csc(NC(=O)c4cccc(OC)c4)n3)ccc21 | Scavenger receptor class B member 1 | DiI-HDL uptake, inhibitor | mouse cells | together with: DiI-HDL | IC50 | 200 nM
O=C(c1ccccc1)N1CCN(S(=O)(=O)c2ccc3[nH]c(=O)oc3c2)CC1 | NUDT15 | enzyme activity, inhibitor, malachite green | – | together with: dGTP | IC50 | 192 nM
CCOc1ccsc1C(=O)N1CCN(c2ccc([N+](=O)[O-])c(N3CCCC3)c2)CC1 | Retinal dehydrogenase 2 (ALDH1A2, Homo sapiens, UniProt O94788) | enzyme activity, inhibitor, NADH formation | – | together with: retinal 40 µM, NAD 100 µM | IC50 | 910 ± 330 nM
COc1cc2c(NC3CCN(Cc4ccccc4)CC3)nc(NCCCN(C)C)nc2cc1OCCCCCN | Histone-lysine N-methyltransferase EHMT1, SET domain (EHMT1, Homo sapiens, UniProt Q9H9B1) | methyltransferase activity, inhibitor | – | 5 min, 30 °C, together with: H3 peptide 5 µM, SAM 100 µM | IC50 | 50 nM
O=C(c1ccc(Cl)c([N+](=O)[O-])c1)N1CCN(Cc2ccccc2)CC1 | SEC14 | phosphatidylinositol transfer, inhibitor | – | Sec14 287 nM, together with: [3H]-phosphatidylinositol | IC50 | > 20000 nM
Cc1ccc(NC(=O)c2cccc(C(F)(F)F)c2)cc1Nc1ncccc1-c1cc(Nc2ccc(OCCNC(=O)CCCC(=O)NCc3ccc(COc4nc(N)nc5[nH]cnc45)cc3)cc2)ncn1 | Tyrosine-protein kinase ABL1, SH3-SH2-kinase domains (ABL1, Homo sapiens, UniProt P00519) | enzyme activity, inhibitor | – | enzyme 6 nM | IC50 | 400 ± 30 nM
CS(=O)(=O)c1ccc(C(=O)N2CCN(S(=O)(=O)c3ccc4[nH]c(=O)oc4c3)CC2)cc1 | NUDT15 | enzyme activity, inhibitor, malachite green | – | together with: dGTP | IC50 | 1690 nM
O=C1c2cccc3[nH]nc(c23)CCN1[C@H]1CN2CCC1CC2 | 5-hydroxytryptamine receptor 3A (HTR3A, Homo sapiens, UniProt P46098) | binding, [3H]granisetron SPA displacement | – | pH 10, together with: [3H]granisetron 10 nM | Ki | 109 ± 17.2 nM
O=C(c1ccc(Cl)c([N+](=O)[O-])c1)N1CCN(c2ccccc2)CC1 | SEC14 | phosphatidylinositol transfer, inhibitor | – | Sec14 287 nM, together with: [3H]-phosphatidylinositol | IC50 | 877 ± 95 nM
N#Cc1ccc(C(=O)N2CCN(S(=O)(=O)c3ccc4[nH]c(=O)oc4c3)CC2)cc1 | NUDT15 | enzyme activity, inhibitor, malachite green | – | together with: dGTP | IC50 | 512 nM
CC1(CNC(=O)c2ccc(C#Cc3ccccc3)cc2)NC(=O)NC1=O (centres unmarked) | – | – | – | – | pKa | 8.39
CCC(=O)N1CC(C)(C)c2cc(-c3csc(NC(=O)c4cc(OC)cc(OC)c4)n3)ccc21 | Scavenger receptor class B member 1 | DiI-HDL uptake, inhibitor | mouse cells | together with: DiI-HDL | IC50 | 12 nM
Cc1cc2c(-c3cncc(N)c3)cnc(N[C@@H]3CCNC[C@H]3OCC3CCS(=O)(=O)CC3)c2[nH]c1=O | – | PAMPA | artificial membrane | pH 7.4 | permeability | < 0.3 ×10⁻⁶ cm/s
Nc1ccc(C(=O)N2CCN(S(=O)(=O)c3ccc4[nH]c(=O)oc4c3)CC2)cc1 | NUDT15 | enzyme activity, inhibitor, malachite green | – | together with: dGTP | IC50 | 361 nM
CO[C@@H]1CNC[C@H](OCC2CCC(F)(F)CC2)[C@H]1Nc1ncc(-c2cncc(C)c2)c2cc(C)c(=O)[nH]c12 | – | CLND | – | – | solubility | 326 µM (≈ 172 µg/mL)
O=C(c1ccc(N2CCOCC2)cc1)N1CCC[C@@H](N(C(=O)CCl)c2ccccc2)C1 | Caspase-8 (CASP8, Homo sapiens, UniProt Q14790, C409S/C433S/D374A/D384A/G418A) | probe labeling, competitive gel-based ABPP | HEK293T cell lysate | 1 h, together with: alkyne probe 10 µM | IC50 | 7140 nM
CCN(CC)C(=O)c1ccc(-c2c3ccc(=[N+](C)C)cc-3[se]c3cc(N(C)C)ccc23)s1 | ATP-dependent translocase ABCB1 (ABCB1, Homo sapiens, UniProt P08183) | ATPase activity, substrate | – | half-maximal ATPase stimulation | Km | 0.68 ± 0.14 µM

For quick reference, copied from above:
Structure (SMILES) | tested on | test | test system | conditions | quantity | result
CO[C@@H]1CNC[C@H](OCC2CCC(F)(F)CC2)[C@H]1Nc1ncc(-c2cncc(C)c2)c2cc(C)c(=O)[nH]c12 | – | CLND | – | – | solubility | 326 µM (≈ 172 µg/mL)
